Measured values collected from several papers.
Each line is one published result; not all experiments were run side by side. ± gives the spread as reported.
F2 gamma-thrombin: Prothrombin, gamma-thrombin (F2, Homo sapiens, UniProt P00734)
4'-phosphopantetheinyl transferase PptT: 4'-phosphopantetheinyl transferase PptT (Mycobacterium tuberculosis, UniProt O33336)

O=[N+]([O-])CC(c1ccco1)c1c(-c2ccccc2)[nH]c2ccccc12 (centres unmarked) — EC50 (Cannabinoid receptor 1 (CNR1, Homo sapiens, UniProt P21554, I245L); G protein activation, agonist, BRET): 490 nM
CC[C@H](C)[C@H](NC(=O)[C@@H]1CCCN1C(=O)[C@H](CCC(=O)O)NC(=O)[C@H](CCSC)NC(=O)CNC(=O)[C@H](CC(N)=O)NC(=O)CNC(=O)CNC(=O)[C@H](CCC(=O)O)NC(=O)CNC(=O)[C@H](CCCNC(=N)N)NC(=O)[C@H](CCC(N)=O)NC(=O)[C@H](Cc1ccc(O)cc1)NC(=O)[C@H](CC(C)C)NC(=O)[C@H](CCCCN)NC(=O)[C@@H]1CCCN1C(=O)[C@H](CCC(N)=O)NC(=O)[C@H](C)NC(=O)[C@@H](NC(=O)[C@H](CCC(=O)O)NC(=O)[C@H](C)NC(=O)[C@H](CCC(=O)O)NC(=O)[C@@H](NC(=O)[C@@H]1CCCN1C(=O)[C@@H](N)CCCCN)C(C)C)C(C)C)C(=O)N1CCC[C@H]1C(=O)N[C@@H](CCC(=O)O)C(=O)N[C@@H](CC(=O)O)C(=O)N[C@@H](Cc1ccc(O)cc1)C(=O)N[C@@H](CC(C)C)C(=O)N[C@@H](CC(N)=O)C(=O)N[C@@H](CCC(=O)O)C(=O)N[C@@H](C)C(=O)N[C@@H](CC(C)C)C(=O)N[C@@H](CC(N)=O)C(=O)N[C@@H](C)C(=O)O — Ki (F2 gamma-thrombin; pH 8): 56600 ± 1550 nM
CCCCCn1cc(C(=O)c2cccc3ccccc23)c2ccccc21 — EC50 (Cannabinoid receptor 1 (CNR1, Homo sapiens, UniProt P21554, F170A); cAMP, agonist, BRET): 398 nM
CCN(CC)C(=O)[C@@H]1C=C2c3cccc4c3c(cn4C(=O)c3ccco3)C[C@H]2N(C)C1 — Ki (Beta-3 adrenergic receptor (ADRB3, Homo sapiens, UniProt P13945); ligand displacement, radioligand): > 10000 nM
CCN(CC)C(=O)c1ccc(C(c2cccc(O)c2)N2CC(C)N(Cc3ccccc3)CC2C)cc1 (centres unmarked) — Ki (Delta-type opioid receptor (OPRD1, Homo sapiens, UniProt P41143, S143C)): 0.12 ± 0.02 nM
Cc1nc2ccc(CNc3ccc(C(=O)NC(CCC(=O)O)C(=O)O)cc3F)cc2c(=O)[nH]1 (centres unmarked) — IC50 (4'-phosphopantetheinyl transferase PptT; enzyme activity, inhibitor, FP): 36 nM
O=C1CCCCO1 — Ki (Carbonic anhydrase (Vibrio cholerae serotype O1, UniProt Q9KMP6); enzyme activity, inhibitor, stopped-flow): 44000 nM
CCCCCn1cc(C(=O)c2ccc3c(c2)CC(C)(C)C3)c2ccccc21 — EC50 (Cannabinoid receptor 1 (CNR1, Homo sapiens, UniProt P21554, H178A); G protein activation, agonist, BRET): 9550 nM
Cc1nc2ccc(CN(C)c3sc(C(=O)NC(CCC(=O)O)C(=O)O)cc3F)cc2c(=O)[nH]1 (centres unmarked) — IC50 (4'-phosphopantetheinyl transferase PptT; enzyme activity, inhibitor, FP): 69 nM
COc1ccc2nccc(CC[C@H]3OC[C@H](NC(=O)c4ccc5c(c4)NC(=O)CO5)CO3)c2c1 — EC50 (DNA gyrase subunit A, with GyrB (Mycobacterium tuberculosis, UniProt P9WG47); single-stranded DNA cleavage; 10 min, 37 °C, added: gyrase 100 nM): 1430 nM
CCCCCn1cc(C(=O)c2cccc3c2CC(C)(C)C3)c2ccccc21 — EC50 (Cannabinoid receptor 1 (CNR1, Homo sapiens, UniProt P21554, I267L/L193I/L359V); cAMP inhibition, agonist, CAMYEL BRET biosensor; added: forskolin 10 µM): 2.04 nM
Cc1ccc2c(C(C[N+](=O)[O-])c3cccs3)c(-c3ccccc3)[nH]c2c1 (centres unmarked) — EC50 (Cannabinoid receptor 1 (CNR1, Homo sapiens, UniProt P21554); β-arrestin2 recruitment, agonist, NanoBiT): 220 ± 10 nM
Cc1nc2ccc(CN(C)c3ccc(C(=O)NC(C(=O)O)C(C)CC(=O)O)cc3)cc2c(=O)[nH]1 (centres unmarked) — IC50 (4'-phosphopantetheinyl transferase PptT; enzyme activity, inhibitor, FP): 58 nM
CC(C)[C@@H]1NC(=O)[C@H](C)NC(=O)[C@H](Cc2ccc(O)cc2)NC(=O)[C@H](CC(=O)O)NC(=O)[C@@H](NC(=O)[C@H](CCCCN)NC(=O)[C@H](CC(=O)O)NC(=O)[C@H](Cc2c[nH]cn2)NC(=O)[C@@H](NC(=O)[C@H](Cc2ccccc2)NC(=O)[C@@H](N)Cc2ccccc2)C(C)C)CCSSCC[C@@H](C(=O)N[C@@H](CCCCN)C(=O)NCC(=O)N[C@@H](CO)C(=O)N[C@@H](CCCCNC(=O)CCCC[C@@H]2SC[C@@H]3NC(=O)N[C@@H]32)C(N)=O)NC(=O)[C@H](CCC(N)=O)NC(=O)[C@H](Cc2c[nH]cn2)NC1=O — Kd (anti-HA antibody 12CA5 (mouse); biolayer interferometry; 30 °C): 2.1 nM
C#CCN(Cc1ccc2nc(C)[nH]c(=O)c2c1)c1ccc(C(=O)N[C@@H](CCC(=O)OC)C(=O)OC)cc1 — IC50 (4'-phosphopantetheinyl transferase PptT; enzyme activity, inhibitor, fluorescence polarization; enzyme 100 nM): 14200 nM
COc1ccccc1C(C[N+](=O)[O-])c1c(-c2ccccc2)[nH]c2ccccc12 (centres unmarked) — EC50 (Cannabinoid receptor 1 (CNR1, Homo sapiens, UniProt P21554, Y172A); G protein activation, agonist, BRET): 250 nM
CC[C@H](C)[C@H](NC(=O)[C@@H]1CCCN1C(=O)[C@H](CCC(=O)O)NC(=O)[C@H](CCSC)NC(=O)CNC(=O)[C@H](CC(N)=O)NC(=O)CNC(=O)CNC(=O)[C@H](CCC(=O)O)NC(=O)CNC(=O)[C@H](CCCNC(=N)N)NC(=O)[C@H](CCC(N)=O)NC(=O)[C@H](Cc1ccc(O)cc1)NC(=O)[C@H](CC(C)C)NC(=O)[C@H](CCCCN)NC(=O)[C@@H]1CCCN1C(=O)[C@H](CCC(N)=O)NC(=O)[C@H](C)NC(=O)[C@@H](NC(=O)[C@H](CCC(=O)O)NC(=O)[C@H](C)NC(=O)[C@H](CCC(=O)O)NC(=O)[C@@H](NC(=O)[C@@H]1CCCN1C(=O)[C@@H](N)CCCCN)C(C)C)C(C)C)C(=O)N1CCC[C@H]1C(=O)N[C@@H](CCC(=O)O)C(=O)N[C@@H](CC(=O)O)C(=O)N[C@@H](Cc1ccc(OS(=O)(=O)O)cc1)C(=O)N[C@@H](CC(C)C)C(=O)N[C@@H](CCC(N)=O)C(=O)O — Ki (F2 gamma-thrombin; pH 8): 3160 ± 97 nM
CN(Cc1ccc2nc(CF)[nH]c(=O)c2c1)c1ccc(C(=O)NC(CCC(=O)O)C(=O)O)s1 (centres unmarked) — IC50 (4'-phosphopantetheinyl transferase PptT; enzyme activity, inhibitor, FP): 75 nM
CC[C@H](C)[C@H](NC(=O)[C@@H]1CCCN1C(=O)[C@H](CCC(=O)O)NC(=O)[C@H](CCSC)NC(=O)CNC(=O)[C@H](CC(N)=O)NC(=O)CNC(=O)CNC(=O)[C@H](CCC(=O)O)NC(=O)CNC(=O)[C@H](CCCNC(=N)N)NC(=O)[C@H](CCC(N)=O)NC(=O)[C@H](Cc1ccc(O)cc1)NC(=O)[C@H](CC(C)C)NC(=O)[C@H](CCCCN)NC(=O)[C@@H]1CCCN1C(=O)[C@H](CCC(N)=O)NC(=O)[C@H](C)NC(=O)[C@@H](NC(=O)[C@H](CCC(=O)O)NC(=O)[C@H](C)NC(=O)[C@H](CCC(=O)O)NC(=O)[C@@H](NC(=O)[C@@H]1CCCN1C(=O)[C@@H](N)CCCCN)C(C)C)C(C)C)C(=O)N1CCC[C@H]1C(=O)N[C@@H](CCC(=O)O)C(=O)N[C@@H](CC(=O)O)C(=O)N[C@@H](Cc1ccc(OS(=O)(=O)O)cc1)C(=O)N[C@@H](CC(C)C)C(=O)N[C@@H](CC(N)=O)C(=O)N[C@@H](CCC(=O)O)C(=O)N[C@@H](C)C(=O)N[C@@H](CC(C)C)C(=O)N[C@@H](CC(N)=O)C(=O)N[C@@H](C)C(=O)O — Ki (Prothrombin (F2, Homo sapiens, UniProt P00734); enzyme activity, inhibitor, absorbance; pH 8): 0.01 nM
C=CCN(Cc1ccc2nc(C)[nH]c(=O)c2c1)c1cnc(C(=O)NC(CCC(=O)O)C(=O)O)s1 (centres unmarked) — IC50 (4'-phosphopantetheinyl transferase PptT; enzyme activity, inhibitor, FP): 63 nM

A few entries again:
Cc1nc2ccc(CN(C)c3sc(C(=O)NC(CCC(=O)O)C(=O)O)cc3F)cc2c(=O)[nH]1 (centres unmarked) — IC50 (4'-phosphopantetheinyl transferase PptT; enzyme activity, inhibitor, FP): 69 nM
COc1ccc2nccc(CC[C@H]3OC[C@H](NC(=O)c4ccc5c(c4)NC(=O)CO5)CO3)c2c1 — EC50 (DNA gyrase subunit A, with GyrB (Mycobacterium tuberculosis, UniProt P9WG47); single-stranded DNA cleavage; 10 min, 37 °C, added: gyrase 100 nM): 1430 nM
